Experimental data gathered from unrelated publications.
A part holds a random share of what one study measured.

Set 1
Target: PABPC1L2, full length, GST fusion (mouse, UniProt A0ABA7IW68)
Technique: RNAcompete
Form: RNA
Sample: in vitro
Concentration: 20 nM
Setting: 7-mer, probes averaged, single round
Relative to: mean of 7-mers
Direction: higher = stronger binding
Quantity: 7-mer Z-score
Residues (chain): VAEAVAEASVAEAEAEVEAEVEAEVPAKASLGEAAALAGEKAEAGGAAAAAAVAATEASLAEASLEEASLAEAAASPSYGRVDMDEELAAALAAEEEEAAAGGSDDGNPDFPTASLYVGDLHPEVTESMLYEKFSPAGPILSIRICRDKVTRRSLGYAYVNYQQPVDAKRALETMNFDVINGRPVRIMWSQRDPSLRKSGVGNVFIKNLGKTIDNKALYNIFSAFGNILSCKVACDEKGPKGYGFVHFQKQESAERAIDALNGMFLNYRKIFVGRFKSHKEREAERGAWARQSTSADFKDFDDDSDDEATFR
CUGACGG: -0.155
AGCUUUU: -0.0989
AUAUCUC: -0.226
AGGCGCC: -0.248
UGCGGCG: -0.0482
UGAACCG: -0.166
GGAGAGA: 0.209
UGACUGG: -0.0409
AUUCAAC: -0.191
ACAAGUC: 0.0551
UACUCAG: -0.135
CACUCGC: -0.262
GACCCAG: -0.119
UCCCCCC: -0.485
CGGUCGG: -0.186
AAAUCGG: 1.35

Set 2
Target: Histone acetyltransferase KAT6A, winged helix 1, GST fusion (KAT6A, Homo sapiens, UniProt Q92794, residues 1-85)
Technique: protein binding microarray
Form: double-stranded DNA, one strand shown
Sample: in vitro
Concentration: not given
Setting: 8-mer, flanks averaged, mean of 2 arrays, mostly near background
Relative to: not given
Direction: higher = stronger binding
Quantity: E-score
Target sequence (chain): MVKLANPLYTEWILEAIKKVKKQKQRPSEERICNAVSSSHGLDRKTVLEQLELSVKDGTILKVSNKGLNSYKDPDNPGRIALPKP
AGCAACGA: -0.189
AGAGAGGG: -0.0774
GCAGGTGA: -0.211
AATGGGCG: 0.0221
ATGCTATA: -0.122
CGAAAGCG: 0.261
ACGAGAGA: -0.142
GGAATCTA: -0.0975
GAAGCTTC: -0.202
ATTCATGC: -0.048
ATTTTAAC: -0.136
ATTAAGCC: 0.0653
CCGTAGCA: 0.265
AAACTTAC: -0.181
GGACAGTA: -0.013
CAGCTTGC: 0.0712
AATGTTCC: -0.0501
GTGTAAGA: -0.203
CCAGAGAG: -0.299
AGGAACAG: -0.175
GTCAGATA: -0.152
CAGTGACG: -0.0158
CGAGGCGC: 0.3
AGTCGATC: -0.14
ATCGCTAG: -0.12

Set 3
Target: Interferon regulatory factor 5, full length, phosphomimetic (IRF5, Homo sapiens, UniProt Q13568-2, residues 1-514, K96S/S451D/S453D/S456D/S462D)
Technique: protein-binding microarray
Form: double-stranded DNA, one strand shown
Sample: in vitro
Concentration: 250 nM
Setting: 60-bp whole probe
Together with: salmon DNA 0.4 mg/ml
Relative to: random background probes
Direction: higher = stronger binding
Quantity: log fluorescence
Shared flanks, not repeated: GCCTAGCAC … GTCTTGATTCGCTTGACGCTGCTG
TTAGATATCGGCTATCGATTAGTGCTA: 5.49 z-score
ACTAATTTCCATTTTCTAAAGTGCTAG: 2.2 z-score
ACCATTTTTTTTCACTATTGGTGCTAG: 2.38 z-score
GTCGGTCTCCTTCTCCTGACGTGCTAG: 0.262 z-score
TTAGGTCTCCTTTTGCTTTAGTGCTAG: 0.208 z-score
TCACTTTTCACTTTCTTACTGTGCTAG: 3.36 z-score
TTAGGTCTCGTTATCCTTTAGTGCTAG: 0.276 z-score
GACAGTTTCGGGTTTCGGGACGTGCTA: 9.84 z-score
TTGGGTCTGGGTATTTTTCTGTGCTAG: 0.0163 z-score
TTTGGTCTCCTACTGCTTTAGTGCTAG: -0.0332 z-score
TTAGATTCCGGGTATCGATTAGTGCTA: 3.79 z-score
GACGATTTCAGTCTCAAGACGTGCTAG: 1.19 z-score
GACGGTTTCGGGTATCGTGACGTGCTA: 7.79 z-score
TCATATCTGTGTTATTAAACTGTGCTA: 1.75 z-score
TTAGGTTTTGGACTGGGTTAGTGCTAG: 0.227 z-score
GGCGATTTCAGTTCCGAGACGTGCTAG: 1.24 z-score
CCTTTTTTGTTGTTTTTTGGGTGCTAG: 1.35 z-score
TCAGCTTTGCTTCCTGCACTGTGCTAG: 0.119 z-score
TTAGAACTGGGGAGTGGATTAGTGCTA: -0.372 z-score
TCATAAGTTTCACTCTGCACTGTGCTA: 5.91 z-score

Set 4
Target: Fragile X messenger ribonucleoprotein 1, C-terminal low-complexity region (Fmr1, Mus musculus, UniProt P35922)
Technique: RNA Bind-n-Seq
Form: RNA
Sample: in vitro
Concentration: 200 nM
Setting: whole 134-nt RNA, ends assumed
Together with: 150 mM KCl
Relative to: input library
Direction: higher = stronger binding
Quantity: log2 enrichment
Shared flanks, not repeated: GGGAGUUCUACAGUCCGACGAUC … UGGAAUUCUCGGGUGUCAAGG
CCUGUGCUACACAUCGUAUGUACCGAAUCGGGAAAAAGGGUUUUUUUGGGUUUUUUUGGGAAAGUAUUAUGUUACGCCGUUCGGAUCUGC: -0.757
CCUGUGCUACACAUCGUAUGUACCGAAUCGGGGUUUGGGGUUUUUUUGGGGUUUUUGGGGAAAGUAUUAUGUUACGCCGUUCGGAUCUGC: 0.703
AAGUCCUGUGCUACACAUCGUAUGUACCGAAUCGGAAAAAAAGGUUUGGAAAAAGGAAAGUAUUAUGUUACGCCGUUCGGAUCUGCACUU: -1.28
ACCAUGCAGGUGGGCAUCUUUGGGAAGUGGGGCAAGGGGGGGAUAGGGACGGGGGUAACACUUUGGGAACAGGUGGUCCCAGGUCGUUUC: 0.714
UGGGAGGUGGAUUUUGUUUAUUUUUUUAGCUCAUUUCCAGGGGUGGUAAUUUUUUUUUAAUAUGUGUCAUGAAUAAAGUUGUUUUUGAAA: 0.497
CAAGUCCUGUGCUACACAUCGUAUGUACCGAAUCGGGAAAAAGGGUUUGGGUGGGAAAGUAUUAUGUUACGCCGUUCGGAUCUGCACUUC: 1.25
AAGUCCUGUGCUACACAUCGUAUGUACCGAAUCGGUUUUGGUUUUGGGGUUUUGGGAAAGUAUUAUGUUACGCCGUUCGGAUCUGCACUU: -0.568
CUCAAGUCCUGUGCUACACAUCGUAUGUACCGAAUCGGCCGGCCGGGGCCGGGAAAGUAUUAUGUUACGCCGUUCGGAUCUGCACUUCCA: -0.0327
UGGCCCUGGUGGCAUGCGGGGAGGAAGAGGUGGCCUCAUGGAUCGUGGUGGUCCCGGUGGAAUGUUUAGAGGUGGCCGUGGUGGAGACAG: 0.178
ACCAUGCAGGUGGGCAUCUUUAGGAAGUGGGGCAAGGGGGGGAUAGGGAGGGGGGUAACACUUUGGGAACAGGUGGUCCCAGGUCGUUUC: 0.819
AGUCCUGUGCUACACAUCGUAUGUACCGAAUCGGGUUUUUGGUUUUUGGGUUUUUGGAAAGUAUUAUGUUACGCCGUUCGGAUCUGCACU: -0.584
UCCUCAAGUCCUGUGCUACACAUCGUAUGUACCGAAUCGGGUGGUGGGGUGGAAAGUAUUAUGUUACGCCGUUCGGAUCUGCACUUCCAG: 0.556
UGGCCCUGGUGGCAUGCGGGGAGGAAGAGGUGGCCUAAUGGAUCGUGGUGGUCCCGGUGGAAUGUUCAGAGGUGGCCGUGGUGGAGACAG: 0.414
AGUCCUGUGCUACACAUCGUAUGUACCGAAUCGGUUUGGUUUUUUUGGUUUUUUUGGAAAGUAUUAUGUUACGCCGUUCGGAUCUGCACU: -0.814

Set 5
Target: RNA binding protein fox-1 homolog 2, RRM domain, GST-SBP tag (RBFOX2, Homo sapiens, UniProt O43251-10, residues 100-194)
Technique: RNA Bind-n-Seq
Form: RNA
Sample: in vitro
Concentration: 365 nM
Setting: natural RNA segment, single round, ends assumed
Relative to: no-protein control
Direction: higher = stronger binding
Quantity: RBNS enrichment (R)
Shared flanks, not repeated: GGGAGUUCUACAGUCCGACGAUC … UGGAAUUCUCGGGUGCCAA
Residues (chain): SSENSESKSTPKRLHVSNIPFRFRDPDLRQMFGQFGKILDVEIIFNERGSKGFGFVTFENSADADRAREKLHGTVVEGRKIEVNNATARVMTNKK
AAGGUAGCUGUCUGUUGCUAGGCAGCCGUUUGCACAAAUCUUGGACAUAAAUCCAACUUGAAGAUCACAUUUUGUGACUGGCUAAUUCUUUUAUGCCCUCGUGGCCAUGG: 0.273
AUCAACUUUUAACAGCCCACUCACUGGCUUUUCUAAACUACCAAAAACCACCUGUAGGAUACUGCAUUAAGUCAGCAUCUCAGAAACAGUGGUGUGAGUAACUGAGUCAA: 0.277
CGGGCAGCAUCGGGCUUCAUAGGUUCGUUGCUCUCCUGAGCUUUUUUGAUUCACUUGCUUUGUUUUCUGUUUUUUUUAAUAGCUAUUAUAAAGAGGUACAAUAAGCAGCU: 0.411
UACAUUAGAAGGAACCUGGUUAGAGCUCGCUCCUCCUGUCUUUGUGUGGCAUUUGUGUUCCAUUACCGGCCCCUUUAAGUAACGGCCUUCACAGCACCUUCCCAGUGGGU: 0.959
GCACCAGACUUGGGGGGUGUAAUCUCCGGCAACUUGCAUGCCCUCUGAAAGAAGGGUUUUCUGUGCUGUGAAAUGCAUAGAACUUACACUUUGCCGUGCACGACUGUUCC: 0.612
CAAGUUCCUCCAGUUGCCCUUGUCCUCAGGUGCAGUGGGACUGUUGUGAGCCCCAGGGAUGGGCACAAAGAGGACUUUUAUUUUGUUAGCUCGGACAGUGCAGUGGUGCA: 2.23
UUAGAUCCCAGGAGUCACAGCAGAGCCUUGCAGUCAUUUCACAUGCGCAGACUCUGGAGAGAGCAAACCUGCCAUGGGCUACAGAUCCCAAUACCUCUGAGGGUCAGAAC: 0.269
ACCAUAGUGCUCAGCAACCACAACCCUGUCUUUCCAACACGGCCCUAGCGUAAGCACUGAGGCAGUGUGCAGUGCUCAGGCAGCAGCAAACAUUUCCCGGGGGUGGUUUU: 0.32
AUACUUCAACUGAUUAUCACACUUGAAAUGCUAAUUAUCAGUGGAAUUUGUCUCCUAUUCUUAAGUACUUCUGCAAGGUAUUAGAUGCUGCUCCUUACCAAAAAUCAGUC: 0.339
AGCUGCAGUCCCCAGGCCAUGAGCCUCCCGGGAAUGUUUAAUAAAGGGCCUGGCCAACUCUCCUCACUGUGUGGGGUGGUCUGUGAAAGAGUGAGAGGAGAGCAUCUCUG: 3.07
CAAAAGGAAGUGAUUAUGCAGCUGUGUGUAGAGUUUCAGAGCAAGUUCCUCAGCAGUGUAGAUGAAUUCACAUCAUUUAUGUUUUAACGGCGUUUUUUUGGAAAGCAUAA: 0.426
UAUCCAAGAAGUUUUUUGGGCGAAAAUCUUGGAUCAUUUUUAUGUAGCAUGAUUUUCCUUGGGAUGCAAAUCUUAAAACAGUCCUUUAAUAUGAACCAACAAUCUGGAGC: 0.648
